Measured values of several laboratories.
Lines come from different studies, so protocols differ. Values joined by “and” are separate records of one study, mostly repeats; a detail may differ. Numbers after ± are the reported error.
Target: Acetylcholinesterase (ACHE, Homo sapiens, UniProt P22303)
Chain of UniProt P22303 (whole entry, looked up): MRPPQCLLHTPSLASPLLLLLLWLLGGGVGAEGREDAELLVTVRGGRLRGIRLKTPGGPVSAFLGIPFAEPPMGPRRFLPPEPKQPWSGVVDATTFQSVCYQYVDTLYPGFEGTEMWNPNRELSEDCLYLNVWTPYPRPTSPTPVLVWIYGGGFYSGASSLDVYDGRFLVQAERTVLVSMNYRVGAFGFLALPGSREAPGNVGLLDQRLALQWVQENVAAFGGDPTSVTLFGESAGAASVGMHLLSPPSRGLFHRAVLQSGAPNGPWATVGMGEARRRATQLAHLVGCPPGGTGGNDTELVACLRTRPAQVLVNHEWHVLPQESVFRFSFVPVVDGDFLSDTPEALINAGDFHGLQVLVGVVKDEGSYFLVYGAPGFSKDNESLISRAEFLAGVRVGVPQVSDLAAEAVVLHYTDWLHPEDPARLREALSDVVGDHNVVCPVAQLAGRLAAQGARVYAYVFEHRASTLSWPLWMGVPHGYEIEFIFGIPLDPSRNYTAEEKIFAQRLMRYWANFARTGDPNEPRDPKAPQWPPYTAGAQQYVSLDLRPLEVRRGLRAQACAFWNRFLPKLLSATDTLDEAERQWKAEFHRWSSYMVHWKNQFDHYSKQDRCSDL

With COc1c(OC(=O)N(C)c2ccc(Br)cc2)cc2oc3cc4c(c(O)c3c(=O)c2c1CC=C(C)C)C=CC(C)(C)O4 the IC50 was 40.6 µM (enzyme activity, inhibitor).
O=C(O)CCCC(=O)O has an IC50 of 893 µM.
For CCc1cccc(N(C)C(=O)Oc2cc3oc4cc5c(c(O)c4c(=O)c3c(CC=C(C)C)c2OC)C=CC(C)(C)O5)c1, the IC50 was 46 µM (enzyme activity, inhibitor).
With COc1cc2c(cc1OC)C(=O)/C(=C\c1ccc([N+](C)(C)C)cc1)C2 the IC50 was 6 µM (enzyme activity, inhibitor).
The IC50 of CCS(=O)(=O)N1CCN(CC(=O)Nc2ccc(/C=C/C(=O)c3ccc(OC)c(OC)c3)cc2)CC1 is reported as 0.205 µM (enzyme activity, inhibitor, Ellman).
With O=C1C=C(OCCCCCCn2cc(CNc3ccc4nccnc4c3)nn2)C(=O)c2ccccc21 the IC50 was 0.58 µM (enzyme activity, inhibitor, Ellman).
NNC(=O)c1ccc(-n2nc(-c3ccccc3O)nc2-c2ccccc2O)cc1 has an IC50 of 0.31 ± 0.02 µM.
The IC50 of OC1C=C2C3CN(Cc4cc5c(cc43)OCO5)C2CC1O (stereo not drawn) is reported as 801 µM (enzyme activity, inhibitor).
O=C1c2ccccc2NC(c2cc(Cl)ccc2O)N1N=Cc1cc(Cl)ccc1O (stereo not drawn) has an IC50 of 14.5 µM (enzyme activity, inhibitor, Ellman).
Cc1nc2ccc(NCc3cn(CCCCOC4=CC(=O)c5ccccc5C4=O)nn3)cc2nc1C gave an IC50 of 15.5 µM (enzyme activity, inhibitor, Ellman).
With COc1ccc2[nH]cc(CCNS(=O)(=O)CCc3cn(-c4cc(C)cc(C)c4)nn3)c2c1 the IC50 was 4.36 µM (enzyme activity, inhibitor).
With O=c1c(O)c(-c2ccc(O)cc2)oc2c(Cc3c(O)cc(O)c4c(=O)c(O)c(-c5ccc(O)c(O)c5)oc34)c(O)cc(O)c12 the IC50 was 0.73 µM (enzyme activity, inhibitor, Ellman).
The IC50 of CC(=O)C(=NNc1ccc2c(C)cc(=O)oc2c1)N1CCN(CCO)CC1 is reported as 116 µM (enzyme activity, inhibitor, Ellman).
For COc1c(OC(=O)N(C)c2ccccc2Br)cc2oc3cc4c(c(O)c3c(=O)c2c1CC=C(C)C)C=CC(C)(C)O4, the IC50 was 19.2 µM (enzyme activity, inhibitor).
For COC(=O)CC1NC(C(C)=O)=NN(c2ccc3c(C)cc(=O)oc3c2)C1=O (stereo not drawn), the IC50 was 135 µM (enzyme activity, inhibitor, Ellman).
With O=C1c2c(O)cc(O)cc2OC2(c3ccc(O)cc3)Oc3cc(O)c4c(=O)c(O)c(-c5ccc(O)c(O)c5)oc4c3C12O (racemic) the IC50 was 6.33 ± 0.45 µM.
O=C(NCc1ccc[n+](Cc2ccccc2Cl)c1)c1ccc(CN2C(=O)c3ccccc3C2=O)cc1 has an IC50 of 2.34 µM (enzyme activity, inhibitor, Ellman).
With COc1cc2c(cc1OC)C(=O)/C(=C\c1ccc(-n3ccnc3)cc1)C2 the IC50 was 70 µM (enzyme activity, inhibitor, Ellman).
With CC(=O)C(=NNc1ccc2c(C)cc(=O)oc2c1)N1CCSCC1 the IC50 was 81.5 µM (enzyme activity, inhibitor, Ellman).
COc1cc2c(cc1OC)C(=O)/C(=C\c1ccc(N3CCCC3)cc1)C2 has an IC50 of 64 µM (enzyme activity, inhibitor, Ellman).
For Cc1nc2ccc(NCc3cn(CCCOC4=CC(=O)c5ccccc5C4=O)nn3)cc2nc1C, the IC50 was 5.4 µM (enzyme activity, inhibitor, Ellman).
O=c1[nH]c2c(O)cccc2c2cc3c(c(O)c12)OCO3 gave an IC50 of 107 µM and 171 µM (enzyme activity, inhibitor).
COc1c(OC(=O)N(C)c2ccc(C)cc2)cc2oc3cc4c(c(O)c3c(=O)c2c1CC=C(C)C)C=CC(C)(C)O4 gave an IC50 of greater than 100 µM (enzyme activity, inhibitor).
With COc1cc2c(cc1OC)C(=O)/C(=C\c1ccc(-n3cccn3)cc1)C2 the IC50 was 55 µM (enzyme activity, inhibitor, Ellman).
O=C1c2c(O)cc(O)cc2O[C@@]2(c3ccc(O)c(O)c3)Oc3cc(O)c4c(=O)c(O)c(-c5ccc(O)cc5)oc4c3[C@@]12O gave an IC50 of 9.89 µM (enzyme activity, inhibitor, Ellman).
The IC50 of CN1c2ccc(OC(=O)Nc3ccncc3)cc2C2(C)CCOC12 (stereo not drawn) is reported as 7 µM (enzyme activity, inhibitor, fluorescence).
For O=C1c2c(O)cc(O)cc2O[C@]2(c3ccc(O)cc3)Oc3cc4oc(-c5ccc(O)c(O)c5)c(O)c(=O)c4c(O)c3[C@]12O, the IC50 was 4.97 µM (enzyme activity, inhibitor, Ellman).
COc1ccc(N(C)C(=O)Oc2cc3oc4cc5c(c(O)c4c(=O)c3c(CC=C(C)C)c2OC)C=CC(C)(C)O5)cc1 has an IC50 of greater than 100 µM (enzyme activity, inhibitor).
The IC50 of COc1ccc(/C=C2/SC(Nc3nc(-c4ccc(C)cc4)cs3)=NC2=O)cc1OC is reported as 0.103 µM (enzyme activity, inhibitor, Ellman).
For O=C(/C=C/c1ccccc1)C(F)(F)F, the IC50 was 0.33 µM (enzyme activity, inhibitor, Ellman).
For O=C1c2ccccc2NC(c2cc(Br)ccc2O)N1/N=C/c1cc(Br)ccc1O (stereo not drawn), the IC50 was 10.5 µM (enzyme activity, inhibitor, Ellman).
The IC50 of O=C1c2c(O)cc(O)cc2O[C@@]2(c3ccc(O)c(O)c3)Oc3cc(O)c4c(=O)c(O)c(-c5ccc(O)c(O)c5)oc4c3[C@@]12O is reported as greater than 50 µM (enzyme activity, inhibitor, Ellman).
With CC1(C)C=Cc2c(cc3oc(-c4ccc(O)cc4)cc(=O)c3c2O)O1 the IC50 was 1340 µM (enzyme activity, inhibitor, Ellman).
With COc1cc2c(cc1OC)C(=O)/C(=C\c1ccc(Br)cc1)C2 the IC50 was greater than 10 µM (enzyme activity, inhibitor, Ellman).
With O=C1c2c(O)cc(O)cc2O[C@]2(c3ccc(O)c(O)c3)Oc3cc4oc(-c5ccc(O)cc5)c(O)c(=O)c4c(O)c3[C@]12O the IC50 was 32.9 µM (enzyme activity, inhibitor, Ellman).
CNCCc1ccc(O)cc1 has an IC50 of 464 µM (enzyme activity, inhibitor).
For COc1c(OC(=O)N(C)c2cccc(C)c2)cc2oc3cc4c(c(O)c3c(=O)c2c1CC=C(C)C)C=CC(C)(C)O4, the IC50 was greater than 100 µM (enzyme activity, inhibitor).
For CC(=O)C1=NN(c2ccc3c(C)cc(=O)oc3c2)C(=O)C(Cc2ccccc2)N1 (stereo not drawn), the IC50 was 442 µM (enzyme activity, inhibitor, Ellman).
With O=C(NCc1ccc[n+](Cc2ccc(C(F)(F)F)cc2)c1)c1ccc(CN2C(=O)c3ccccc3C2=O)cc1 the IC50 was 4.13 µM (enzyme activity, inhibitor, Ellman).
For Cc1cc(C)cc(-n2cc(CCS(=O)(=O)N3CCc4ccccc4C3)nn2)c1, the IC50 was 2.32 µM (enzyme activity, inhibitor).
With COc1cc2c(cc1OC)C(=O)C(=Cc1ccc(N3CC[N+](C)(C)CC3)cc1)C2 the IC50 was 0.1 µM (enzyme activity, inhibitor, Ellman).
COC(=O)CCC1NC(C(C)=O)=NN(c2ccc3c(C)cc(=O)oc3c2)C1=O (stereo not drawn) gave an IC50 of 129 µM (enzyme activity, inhibitor, Ellman).
O=C(O)/C=C/c1ccc(O)cc1 has an IC50 of 487 µM (inhibitor).
O=C(O)/C=C/c1cc(O)cc(O)c1 has an IC50 of 422 µM.
The IC50 of CCN1CCN(C(=NNc2ccc3c(C)cc(=O)oc3c2)C(C)=O)CC1 is reported as 216 µM (enzyme activity, inhibitor, Ellman).
COc1cccc(N(C)C(=O)Oc2cc3oc4cc5c(c(O)c4c(=O)c3c(CC=C(C)C)c2OC)C=CC(C)(C)O5)c1 gave an IC50 of 43.4 µM (enzyme activity, inhibitor).
For O=C1C=C(OCCCCCCCCn2cc(CNc3ccc4nccnc4c3)nn2)C(=O)c2ccccc21, the IC50 was 0.022 µM (enzyme activity, inhibitor, Ellman).
For COc1cc2c(cc1OC)C1C(O)C(OC)C(O)C3=CC[N+](CCl)(C2)C31 (stereo not drawn), the IC50 was 264.86 ± 0.23 µM (enzyme activity, inhibitor; no inhibition observed).
The IC50 of O=C(NCc1ccc[n+](Cc2ccc(Cl)cc2)c1)c1ccc(CN2C(=O)c3ccccc3C2=O)cc1 is reported as 0.48 µM (enzyme activity, inhibitor, Ellman).
With C=CCc1ccc(OC(=O)COC(=O)Cn2cnc3c2c(=O)n(C)c(=O)n3C)c(OC)c1 the IC50 was 1.8 µM (enzyme activity, inhibitor, Ellman).
Nn1c(-c2ccc(-n3nc(-c4ccccc4O)nc3-c3ccccc3O)cc2)n[nH]c1=S has an IC50 of 0.71 ± 0.16 µM.

Repeated from above:
For COc1cc2c(cc1OC)C1C(O)C(OC)C(O)C3=CC[N+](CCl)(C2)C31 (stereo not drawn), the IC50 was 264.86 ± 0.23 µM (enzyme activity, inhibitor; no inhibition observed).
The IC50 of OC1C=C2C3CN(Cc4cc5c(cc43)OCO5)C2CC1O (stereo not drawn) is reported as 801 µM (enzyme activity, inhibitor).
For O=C1C=C(OCCCCCCCCn2cc(CNc3ccc4nccnc4c3)nn2)C(=O)c2ccccc21, the IC50 was 0.022 µM (enzyme activity, inhibitor, Ellman).
For O=C1c2ccccc2NC(c2cc(Br)ccc2O)N1/N=C/c1cc(Br)ccc1O (stereo not drawn), the IC50 was 10.5 µM (enzyme activity, inhibitor, Ellman).
The IC50 of COc1ccc(/C=C2/SC(Nc3nc(-c4ccc(C)cc4)cs3)=NC2=O)cc1OC is reported as 0.103 µM (enzyme activity, inhibitor, Ellman).
For COc1c(OC(=O)N(C)c2cccc(C)c2)cc2oc3cc4c(c(O)c3c(=O)c2c1CC=C(C)C)C=CC(C)(C)O4, the IC50 was greater than 100 µM (enzyme activity, inhibitor).
